{"data": "Experimental data from different studies", "note": "Protocols differ between the studies behind these lines. Numbers after ± are the reported error."}
{"Structure (SMILES)": "O[C@H]1CCCN[C@@H]1CCCn1cnc2c(Cl)c(Cl)ccc21", "system": "human, plasma", "conditions": "oral, 600 mg single dose, capsule, geometric mean", "AUC(0-inf)": "1.92 µg·h/mL"}
{"Structure (SMILES)": "Oc1ccc2ccc3c4ccccc4cc4ccc1c2c43", "test": "UPLC-AMS", "system": "human, plasma", "conditions": "oral, 50 ng of [14C]-BaP", "AUC(0-inf)": "11 ± 6.38 fg BaP equivalents·h/mL"}
{"Structure (SMILES)": "O=c1[nH]c(Cc2ccccn2)nc2c1cnn2C1CCOCC1", "system": "healthy male human, plasma", "conditions": "oral, 100 mg, geometric mean", "AUC(0-inf)": "6.06 µM·h"}
{"Structure (SMILES)": "Cc1ncc2n1-c1ccc(Cl)cc1C(c1ccccc1F)=NC2", "system": "healthy human volunteers, plasma", "conditions": "oral, 5 mg single dose, geometric mean, added: double-strength cranberry juice", "AUC(0-inf)": "0.286 µM·h"}
{"Structure (SMILES)": "CC[C@@]1(O)C(=O)OCc2c1cc1n(c2=O)Cc2cc3c(CN(C)C)c(O)ccc3nc2-1", "system": "human patients, plasma", "conditions": "oral, 8 mg weekly, day 1, geometric mean, alone", "AUC(0-inf)": "0.157 µg·h/mL"}
{"Structure (SMILES)": "COc1ccsc1CNCC[C@@]1(c2ccccn2)CCOC2(CCCC2)C1", "system": "healthy human, normal renal function, plasma", "conditions": "intravenous, 1 mg single dose, arithmetic mean", "AUC(0-inf)": "0.0183 µg·h/mL"}
{"Structure (SMILES)": "COc1ccc(C[C@@H]2NC(=O)[C@H]([C@@H](C)O)NC(=O)[C@@H]3[C@@H]4CCN3C(=O)[C@@H]3Cc5cn(c6ccc(F)cc56)CCCCCCN(Cc5ccc(cc5)CCNC(=O)[C@]5(C)CCCN5C2=O)C(=O)CCC(=O)N[C@@H](C)C(=O)N[C@H](CNC(=O)CCCCC[N+](C)(C)C)C(=O)N[C@@H](Cc2cccc(c2)CNC(=O)CO4)C(=O)N3)cc1", "system": "fasted healthy humans, plasma", "conditions": "oral, 300 mg single dose, with 1800 mg Labrasol, geometric mean", "AUC(0-inf)": "2.26 µM·h"}
{"Structure (SMILES)": "COc1ccc2[nH]cc(CCN(C)C)c2c1", "system": "Tg-CYP2D6 humanized mouse, serum", "conditions": "intraperitoneal, 2 mg/kg, added: harmaline 5 mg/kg i.p. pretreatment", "AUC(0-inf)": "1.27 ± 0.208 µM·h"}
{"Structure (SMILES)": "Oc1ccc2cc3ccc4cccc5ccc(c2c1)c3c45", "test": "UPLC-AMS", "system": "human, plasma", "conditions": "oral, 250 ng of [14C]-BaP", "AUC(0-inf)": "65 ± 64.9 fg BaP equivalents·h/mL"}
{"Structure (SMILES)": "CCCCCOc1ccc(-c2ccc(-c3ccc(C(=O)N[C@H]4C[C@@H](O)[C@@H](OCC[N+](C)(C)C)NC(=O)[C@@H]5[C@@H](O)[C@@H](C)CN5C(=O)[C@H]([C@@H](C)O)NC(=O)[C@H]([C@H](O)[C@@H](O)c5ccc(O)cc5)NC(=O)[C@@H]5C[C@@H](O)CN5C(=O)[C@H]([C@@H](C)O)NC4=O)cc3)cc2)cc1", "system": "healthy adult humans, plasma", "conditions": "subcutaneous, 10 mg, geometric mean", "AUC(0-inf)": "39.2 µg·h/mL"}
{"Structure (SMILES)": "Cc1ncc(OC[C@@]2(c3cccc(F)c3)C[C@H]2C(=O)Nc2ccc(F)cn2)c(C)n1", "system": "human, plasma", "conditions": "10 mg, alone, geometric mean", "AUC(0-inf)": "0.374 µg·h/mL"}
{"Structure (SMILES)": "CN[C@@H]1C[C@H]2O[C@@](C)([C@@H]1OC)n1c3ccccc3c3c4c(c5c6ccccc6n2c5c31)C(=O)N[C@@H]4O", "system": "human patients", "conditions": "intravenous infusion, 24 mg/m^2/24 h, 72 h infusion, cycle 1, mean, added: prednisone", "AUC(0-inf)": "8430 µg·h/mL"}
{"Structure (SMILES)": "CC[C@H](C)[C@H](NC(=O)[C@H](CC(C)C)NC(=O)[C@H](Cc1c[nH]c2ccccc12)NC(=O)[C@H](CCC(N)=O)NC(=O)[C@@H](NC(=O)[C@H](Cc1ccccc1)NC(=O)[C@H](C)NC(=O)[C@H](CCCCNC(=O)COCCOCCNC(=O)COCCOCCNC(=O)CC[C@H](NC(=O)CCCCCCCCCCCCCCCCCCC(=O)O)C(=O)O)NC(=O)[C@H](CCC(N)=O)NC(=O)[C@H](C)NC(=O)[C@@H](NC(=O)[C@H](CCCCN)NC(=O)[C@H](CC(=O)O)NC(=O)[C@H](CC(C)C)NC(=O)C(C)(C)NC(=O)[C@@H](NC(=O)[C@H](CO)NC(=O)[C@H](Cc1ccc(O)cc1)NC(=O)[C@H](CC(=O)O)NC(=O)[C@H](CO)NC(=O)[C@@H](NC(=O)[C@H](Cc1ccccc1)NC(=O)[C@@H](NC(=O)CNC(=O)[C@H](CCC(=O)O)NC(=O)C(C)(C)NC(=O)[C@@H](N)Cc1ccc(O)cc1)[C@@H](C)O)[C@@H](C)O)[C@@H](C)CC)[C@@H](C)CC)C(C)C)C(=O)N[C@@H](C)C(=O)NCC(=O)NCC(=O)N1CCC[C@H]1C(=O)N[C@@H](CO)C(=O)N[C@@H](CO)C(=O)NCC(=O)N[C@@H](C)C(=O)N1CCC[C@H]1C(=O)N1CCC[C@H]1C(=O)N1CCC[C@H]1C(=O)N[C@@H](CO)C(N)=O", "system": "human, normal hepatic function, plasma", "conditions": "subcutaneous, 5 mg single dose, geometric LS mean, weight-adjusted", "AUC(0-inf)": "87.5 µg·h/mL"}
{"Structure (SMILES)": "Cc1ncc2n1-c1ccc(Cl)cc1C(c1ccccc1F)=NC2", "system": "human, plasma", "conditions": "oral, 2 mg, geometric mean, added: fenebrutinib 200 mg twice daily", "AUC(0-inf)": "0.0397 µg·h/mL"}
{"Structure (SMILES)": "CC[C@H](C)[C@H](NC(=O)[C@H](CC(C)C)NC(=O)[C@H](Cc1c[nH]c2ccccc12)NC(=O)[C@H](CCC(N)=O)NC(=O)[C@@H](NC(=O)[C@H](Cc1ccccc1)NC(=O)[C@H](C)NC(=O)[C@H](CCCCNC(=O)COCCOCCNC(=O)COCCOCCNC(=O)CC[C@H](NC(=O)CCCCCCCCCCCCCCCCCCC(=O)O)C(=O)O)NC(=O)[C@H](CCC(N)=O)NC(=O)[C@H](C)NC(=O)[C@@H](NC(=O)[C@H](CCCCN)NC(=O)[C@H](CC(=O)O)NC(=O)[C@H](CC(C)C)NC(=O)C(C)(C)NC(=O)[C@@H](NC(=O)[C@H](CO)NC(=O)[C@H](Cc1ccc(O)cc1)NC(=O)[C@H](CC(=O)O)NC(=O)[C@H](CO)NC(=O)[C@@H](NC(=O)[C@H](Cc1ccccc1)NC(=O)[C@@H](NC(=O)CNC(=O)[C@H](CCC(=O)O)NC(=O)C(C)(C)NC(=O)[C@@H](N)Cc1ccc(O)cc1)[C@@H](C)O)[C@@H](C)O)[C@@H](C)CC)[C@@H](C)CC)C(C)C)C(=O)N[C@@H](C)C(=O)NCC(=O)NCC(=O)N1CCC[C@H]1C(=O)N[C@@H](CO)C(=O)N[C@@H](CO)C(=O)NCC(=O)N[C@@H](C)C(=O)N1CCC[C@H]1C(=O)N1CCC[C@H]1C(=O)N1CCC[C@H]1C(=O)N[C@@H](CO)C(N)=O", "system": "human, severe renal impairment, no dialysis, plasma", "conditions": "subcutaneous, 5 mg single dose, eGFR < 30, geometric mean", "AUC(0-inf)": "83 µg·h/mL"}
